Measurements gathered from unrelated publications.
Each numbered part is a random draw from the data of one study; scales do not carry over between parts.

Study 1
Target: Ras GTPase-activating protein-binding protein 1, RRM domain (G3BP1, Homo sapiens, UniProt Q13283)
Chain of UniProt Q13283 (whole entry, looked up): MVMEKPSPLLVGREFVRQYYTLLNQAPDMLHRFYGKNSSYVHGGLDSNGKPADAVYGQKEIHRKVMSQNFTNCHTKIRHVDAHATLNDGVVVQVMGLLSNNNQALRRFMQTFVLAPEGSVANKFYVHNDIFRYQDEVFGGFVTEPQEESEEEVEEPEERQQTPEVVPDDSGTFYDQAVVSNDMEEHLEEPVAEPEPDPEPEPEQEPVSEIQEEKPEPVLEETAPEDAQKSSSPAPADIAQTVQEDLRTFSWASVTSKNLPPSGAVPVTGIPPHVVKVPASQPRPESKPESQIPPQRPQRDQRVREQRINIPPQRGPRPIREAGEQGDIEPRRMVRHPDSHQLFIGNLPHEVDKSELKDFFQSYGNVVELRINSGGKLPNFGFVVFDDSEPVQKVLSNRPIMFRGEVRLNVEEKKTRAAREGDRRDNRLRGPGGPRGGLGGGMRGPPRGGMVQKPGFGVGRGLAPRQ
Technique: RNA Bind-n-Seq
Molecule type: RNA
Matrix: in vitro
Concentration: 1 µM
Notes: whole 134-nt RNA, ends assumed
Together with: 150 mM KCl
Baseline: input library
Direction: higher = stronger binding
Constant ends, left off below: GGGAGUUCUACAGUCCGACGAUC … UGGAAUUCUCGGGUGUCAAGG
Sequence | log2 enrichment
GUCCUGUGCUACACAUCGUAUGUACCGAAUCGGCCCCCGGGGCCCCCGGGGCCCCCGGAAAGUAUUAUGUUACGCCGUUCGGAUCUGCAC | -0.468
CACAGACAACACGCACCCACACAGACACAGAGGGAAGGGGUUGGGAUGGGGACAGGGUGCACAGCAGGGCGGGGUAGGACCCAAACCCCU | -0.212
CAAGUCCUGUGCUACACAUCGUAUGUACCGAAUCGGGAAGGGGAAGGGGAAGGGGAAAGUAUUAUGUUACGCCGUUCGGAUCUGCACUUC | 1.42
UGGCCCUGGUGGCAUGCGGGGAGGAAGAGGUGGCCUCAUGGAUCGUGGUGGUCCCGGUGGAAUGUUCAGAGGUGGACGUGGUGGAGACAG | 2.21
ACCAUGCAGGUGGGCAUCUUUGGGAAGUGGGGCAAGGGGGAAAUAGGGAGGGGGGUAACACUUUGGGAACAGGUGGUCCCAGGUCGUUUC | -0.317
CAAGUCCUGUGCUACACAUCGUAUGUACCGAAUCGGGGAGGGGUGGGGAAAGGGGAAAGUAUUAUGUUACGCCGUUCGGAUCUGCACUUC | 0.988
UCCACCCCUUCUUCCUCCCUUUAACUUAUCCAUUCACUUAAAACAUUACCUGGUCAUCUGGUAAGCCCGGGACAGUAAGCCGAGUGGCUG | -0.172
CACAGACAACACGAAACCACACAGACACAGAGGGAAGGGGUUGGGAUGGGGACAGGGUGCACAGCAGGGCGGGGUAGGACCCCAGCCCCU | -0.186
CUGUGCUACACAUCGUAUGUACCGAAUCGGGGAAAAAAAGGGGAAAAAAAGGGGUUUGGGGAAAGUAUUAUGUUACGCCGUUCGGAUCUG | 0.609

Study 2
Target: RNA binding protein fox-1 homolog 2, RRM domain, GST-SBP tag (RBFOX2, Homo sapiens, UniProt O43251-10, residues 100-194)
Technique: RNA Bind-n-Seq
Molecule type: RNA
Matrix: in vitro
Concentration: 365 nM
Notes: natural RNA segment, single round, ends assumed
Baseline: no-protein control
Direction: higher = stronger binding
Constant ends, left off below: GGGAGUUCUACAGUCCGACGAUC … UGGAAUUCUCGGGUGCCAA
Target sequence (chain): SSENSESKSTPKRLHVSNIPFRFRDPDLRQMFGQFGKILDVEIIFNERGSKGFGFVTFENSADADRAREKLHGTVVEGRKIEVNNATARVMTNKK
Sequence | RBNS enrichment (R)
CCUAAGCCACCCACAUAAGUACGCUGGUGCCGUGUCACCCAUGUUGAGCCGCUCCUGAUGGCUGACGGGCUCCCAGACCCUCACCUCGGACAUGGUGGUGGGGGAAGGAC | 0.383
CUGUUCCAGACUGGACAUCCACUGUCUUUCCUGCUUUCGCGUCAGAUUUACAGCUUAUGCUAGGCCCACCCAACUGGACAAGGCUGUCUCCUGUCUUCUACUACCCUGGC | 0.365
GUUACCAAAUUUUAUAUAAGAAUGGAAUAGUCAGUCUGGCCUUAAAGAGACACACAAAGAUGGGCUGUGAGCCCCUAGAAAGGGACUAGUUAGUUGCCUUUGAUAGAAUU | 0.538
CUUUGUCCCAUUUCUAAAGGCCUCUUCCUUGCUGUGUCAUACCAGGCCGCCCCAGCCUCUGAGCCCCUGGGACUGCUGCUUCUUAACCCCAGUAAGCCACUGCCACACGU | 0.332
AGGGAAGCCUGGAGCCGCACCCGACUCAGCCACUCUGCGUCACAUUCGUCCUGUACCUAGGACCGGAGGAAAGACGUGACUGCUCUAACCGGACCUCUGACUACCGGUGG | 0.282
CUGUUGAGGUCCUGCCUUGUGCUUUCCUAGUGGAAGCCGUCCUUUGCCCCCGUUGAUGACUUGAGCCCUUGCCAAACAAACACCGAUGAGUGAAGUGGCUGCAACUUGGC | 0.356
CUCCCUAUCCAUGGCACUAAACCACUUCUCUGCUGCCUCUGUGGAAGAGAUUCCUAUUACUGCAGUACAUACGUCUGCCAGGGGUAACCUGGCCACUGUCCCUGUCCUUC | 0.437
GGGCUCUGCCCGUCCUGUUCUGCCCAUGGCCCAGCCCGGCCGCUCCUGCUGACCCCUCCUGGACGGGCUGGAGCUGGGCUCCUGCCUUUGCUGCUAACACUGGAGGCGGU | 0.331

Study 3
Target: RING finger protein unkempt homolog, zinc fingers 1-6, SBP tag (UNK, Homo sapiens, UniProt Q9C0B0, residues 30-357)
Chain of UniProt Q9C0B0 (30-357, looked up): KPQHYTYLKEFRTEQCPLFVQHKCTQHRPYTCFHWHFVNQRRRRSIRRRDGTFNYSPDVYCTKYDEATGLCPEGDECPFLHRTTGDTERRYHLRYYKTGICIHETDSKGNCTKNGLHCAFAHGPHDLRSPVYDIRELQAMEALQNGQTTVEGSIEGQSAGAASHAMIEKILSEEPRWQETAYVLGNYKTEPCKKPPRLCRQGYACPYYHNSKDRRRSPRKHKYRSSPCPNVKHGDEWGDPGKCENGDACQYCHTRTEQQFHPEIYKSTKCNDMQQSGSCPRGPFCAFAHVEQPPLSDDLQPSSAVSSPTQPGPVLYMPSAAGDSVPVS
Technique: RNA Bind-n-Seq
Molecule type: RNA
Matrix: in vitro
Concentration: 100 nM
Notes: RNA with constant flanks, vertebrate orthologous sites, ends assumed
Baseline: input RNA pool
Direction: higher = stronger binding
Constant ends, left off below: GGGAGUUCUACAGUCCGACGAUC … CAACAGAGGAUUGAGCAUCA
Sequence | bound/input enrichment
AGUAUCCCAGUUGUACCGUGUUGGGUUGGCAUUGUACAGAAAUUAACAGCCAUAUUGGUCUAGAAAUGUUAAACAUAAUUUUUUCCAUUUGUACAGGGGUAACGCACUGUAUUAAAUAUG | 0.832 ratio
UCCCCGUUACCCCUAAAGUAGAACAUUUUUUAAAUUGUGUUGCCACCACUUCUAAAAAUUUAGCAAUAUUAGAAUAGUACACUAAUGAAGUAAGAAAUUUUGCUUGUUAUUUUGCAAACC | 4.79 ratio
AACUCUUGCAGUCUUAGAUGUUAUAAAAAUAUAUAUAUAUCUCUGAAUUGUAAGAGUUGUUAGCACAGUUUUUUUGUUUGUUUUUAAACACUUGUUUUGGGUACAAGGCAUUUCUGAAAU | 0.471 ratio
GAAGUUCCCCAUUGUCACUGAGAACCACCAAAUUUGACUUUCACAUUUGGUCUCAGAAUUUAGGUUCCUGCCCUGUUGUUUUUCUUUCUUUUUCUUAAAACAAACAAACAAACAAACAGU | 0.342 ratio
CAUUAACACACAAAAUGUCUCCAGGGGGGUAUUAGAUUUGAUUUCUUACAUAUAAAACAAACAAAACCAACCAACGAACCAUUUUUAAAGUAGAAGAGGGUUUUUAAUAGAAAAUGACAU | 1.54 ratio
UGCAGGCACAACUGACUGGUUCACAGCAUUCCCUACACAGUUAUUUACCAAGUACAAAUGUAGUUAACUUUCAGGAUACAACCAGGCAGUCAACAUUGUCUUGUAGCCCCAUUGGAGAUG | 0.298 ratio
UUUUAAAGUCAUUUUUCACAUUUCCUGUAAAUAGUGGAUAAUCAUUUUUAUUUUAUUUUUAAGUGCUGUUUUAACAUGUGGACAGAUCAUAAAUGUACUUGCUGAAUUCAUUCUUUUUUU | 0.676 ratio
AUCUCUUAUUUUGUAUACCCAAAAAUGACCUUGAAUUUUUAAACAAUUGAUAGUUUUAACUAGCUCAACCCUCAUAAAGUAUUACUGUAGCUCACUAUAAACAGAUAUCUGUCUGAAUUA | 1.04 ratio

Study 4
Target: PABPC1L2, full length, GST fusion (mouse, UniProt A0ABA7IW68)
Technique: RNAcompete
Molecule type: RNA
Matrix: in vitro
Concentration: 20 nM
Notes: 7-mer, probes averaged, single round
Baseline: mean of 7-mers
Direction: higher = stronger binding
Residues (chain): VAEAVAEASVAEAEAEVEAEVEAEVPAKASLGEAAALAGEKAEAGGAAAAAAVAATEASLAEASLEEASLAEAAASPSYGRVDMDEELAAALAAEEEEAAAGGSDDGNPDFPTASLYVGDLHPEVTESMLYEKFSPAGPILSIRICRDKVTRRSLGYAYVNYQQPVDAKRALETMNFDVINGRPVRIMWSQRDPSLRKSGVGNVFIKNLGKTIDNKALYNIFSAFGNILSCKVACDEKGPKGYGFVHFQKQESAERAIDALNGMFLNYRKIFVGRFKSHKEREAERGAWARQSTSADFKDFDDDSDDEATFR
Sequence | 7-mer Z-score
CGGUAUA | -0.112
GGUCACC | -0.0446
UGGUUUC | -0.367
AGACGGC | -0.0863
GGGCGUU | 0.0678
UCGGUGG | 0.000733
CUUUGGA | -0.213
AUGUCUA | -0.144
GAUGGAA | 0.0732
AUUGAGC | -0.186
ACUGGGA | 0.148
CCAGACC | 0.0152
CGUCCCU | -0.47
GGAUAAC | 0.1
UCGUCGU | -0.512
CGCUACG | -0.162
AUGAAGA | 0.0986
UGCGGUG | -0.0373
UACCAUU | -0.222
UAAGCGC | -0.179
AAUUAGG | 0.488
AGGAUUU | -0.113
GGGCAUC | 0.407
AGCCAAG | -0.0826
AAACUGA | 1.02
